{"data": "Measurements of several laboratories", "note": "Numbered parts are unrelated; each lists some results of a single study.", "chain of UniProt Q16620 (whole entry, looked up)": "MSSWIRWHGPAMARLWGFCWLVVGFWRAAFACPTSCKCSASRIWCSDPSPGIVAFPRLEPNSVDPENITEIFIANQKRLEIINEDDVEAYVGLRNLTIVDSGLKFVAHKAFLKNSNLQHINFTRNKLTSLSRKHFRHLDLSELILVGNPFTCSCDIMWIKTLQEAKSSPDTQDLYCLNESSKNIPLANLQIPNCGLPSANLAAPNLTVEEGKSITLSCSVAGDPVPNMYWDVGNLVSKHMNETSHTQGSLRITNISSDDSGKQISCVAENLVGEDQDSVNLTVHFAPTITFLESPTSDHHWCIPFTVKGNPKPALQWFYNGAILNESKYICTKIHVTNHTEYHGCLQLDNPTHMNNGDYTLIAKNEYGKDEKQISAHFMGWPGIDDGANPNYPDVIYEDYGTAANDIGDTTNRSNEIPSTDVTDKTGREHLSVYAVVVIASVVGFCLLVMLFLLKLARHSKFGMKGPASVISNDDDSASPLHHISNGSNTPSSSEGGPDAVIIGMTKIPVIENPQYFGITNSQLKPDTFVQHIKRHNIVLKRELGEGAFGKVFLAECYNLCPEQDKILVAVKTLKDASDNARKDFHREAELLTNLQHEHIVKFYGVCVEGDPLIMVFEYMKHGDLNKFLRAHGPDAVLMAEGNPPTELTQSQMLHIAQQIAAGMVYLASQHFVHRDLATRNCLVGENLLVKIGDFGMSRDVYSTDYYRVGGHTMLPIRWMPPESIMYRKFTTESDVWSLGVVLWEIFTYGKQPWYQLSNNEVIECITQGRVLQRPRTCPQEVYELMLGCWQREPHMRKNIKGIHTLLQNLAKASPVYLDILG", "chain of UniProt P54756 (whole entry, looked up)": "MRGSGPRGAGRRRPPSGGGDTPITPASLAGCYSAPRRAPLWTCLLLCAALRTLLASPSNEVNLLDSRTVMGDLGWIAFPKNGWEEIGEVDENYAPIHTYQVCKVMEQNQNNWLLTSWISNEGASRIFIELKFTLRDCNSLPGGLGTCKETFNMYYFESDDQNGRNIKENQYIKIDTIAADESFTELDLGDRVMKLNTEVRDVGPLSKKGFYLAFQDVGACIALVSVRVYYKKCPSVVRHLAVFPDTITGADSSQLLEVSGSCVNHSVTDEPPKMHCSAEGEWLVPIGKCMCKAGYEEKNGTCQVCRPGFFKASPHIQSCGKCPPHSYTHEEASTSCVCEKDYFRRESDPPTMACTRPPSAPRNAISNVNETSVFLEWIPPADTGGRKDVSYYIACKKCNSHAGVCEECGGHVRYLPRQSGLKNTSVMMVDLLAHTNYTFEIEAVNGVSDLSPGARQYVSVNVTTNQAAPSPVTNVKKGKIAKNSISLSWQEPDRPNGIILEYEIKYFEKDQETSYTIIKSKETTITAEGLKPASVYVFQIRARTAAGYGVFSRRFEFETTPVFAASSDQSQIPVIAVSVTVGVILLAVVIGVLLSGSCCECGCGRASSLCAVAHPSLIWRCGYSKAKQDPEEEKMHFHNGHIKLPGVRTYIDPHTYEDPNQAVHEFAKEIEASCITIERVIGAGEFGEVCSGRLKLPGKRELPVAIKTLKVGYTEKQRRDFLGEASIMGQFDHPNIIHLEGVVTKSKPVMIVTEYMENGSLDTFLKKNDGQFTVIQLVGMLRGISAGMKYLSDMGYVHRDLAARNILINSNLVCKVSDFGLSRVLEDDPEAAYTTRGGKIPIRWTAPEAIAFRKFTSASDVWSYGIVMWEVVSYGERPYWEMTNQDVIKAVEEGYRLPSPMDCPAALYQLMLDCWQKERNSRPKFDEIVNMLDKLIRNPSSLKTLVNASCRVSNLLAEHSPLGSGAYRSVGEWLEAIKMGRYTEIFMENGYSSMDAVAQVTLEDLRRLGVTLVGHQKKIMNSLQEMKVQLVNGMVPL", "chain of UniProt Q9H3Y6 (whole entry, looked up)": "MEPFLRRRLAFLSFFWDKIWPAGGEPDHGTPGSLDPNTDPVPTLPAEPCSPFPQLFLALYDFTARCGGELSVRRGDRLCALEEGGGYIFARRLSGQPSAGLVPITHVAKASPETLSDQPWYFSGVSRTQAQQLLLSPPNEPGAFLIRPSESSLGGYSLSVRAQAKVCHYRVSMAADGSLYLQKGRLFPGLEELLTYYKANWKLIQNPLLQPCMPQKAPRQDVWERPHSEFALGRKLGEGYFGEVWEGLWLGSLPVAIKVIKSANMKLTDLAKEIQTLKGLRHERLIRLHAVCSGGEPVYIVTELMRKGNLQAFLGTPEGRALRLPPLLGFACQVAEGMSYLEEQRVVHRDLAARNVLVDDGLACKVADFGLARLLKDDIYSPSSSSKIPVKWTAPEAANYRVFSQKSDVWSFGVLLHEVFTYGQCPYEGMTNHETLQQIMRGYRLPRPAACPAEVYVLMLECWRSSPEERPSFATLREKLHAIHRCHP", "chain of UniProt P22455 (whole entry, looked up)": "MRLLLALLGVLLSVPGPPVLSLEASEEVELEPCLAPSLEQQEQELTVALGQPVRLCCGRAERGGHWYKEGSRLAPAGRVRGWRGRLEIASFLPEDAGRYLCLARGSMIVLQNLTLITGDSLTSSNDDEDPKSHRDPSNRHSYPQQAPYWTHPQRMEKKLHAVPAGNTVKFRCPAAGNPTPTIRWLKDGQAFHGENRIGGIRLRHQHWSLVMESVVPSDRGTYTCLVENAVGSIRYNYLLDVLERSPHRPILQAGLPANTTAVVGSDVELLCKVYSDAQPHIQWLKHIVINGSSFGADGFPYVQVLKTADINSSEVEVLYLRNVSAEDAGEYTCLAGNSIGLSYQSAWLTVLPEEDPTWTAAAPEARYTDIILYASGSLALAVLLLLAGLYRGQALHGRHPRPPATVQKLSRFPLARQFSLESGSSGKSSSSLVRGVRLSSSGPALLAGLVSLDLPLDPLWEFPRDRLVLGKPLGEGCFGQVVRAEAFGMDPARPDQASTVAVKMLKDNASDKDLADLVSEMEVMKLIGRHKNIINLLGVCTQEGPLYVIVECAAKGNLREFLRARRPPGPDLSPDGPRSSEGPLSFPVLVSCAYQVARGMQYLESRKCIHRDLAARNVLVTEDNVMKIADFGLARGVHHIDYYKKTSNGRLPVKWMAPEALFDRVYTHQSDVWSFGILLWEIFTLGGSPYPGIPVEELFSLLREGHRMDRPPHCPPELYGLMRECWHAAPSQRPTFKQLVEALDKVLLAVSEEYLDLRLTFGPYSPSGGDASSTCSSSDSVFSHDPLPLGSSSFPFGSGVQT", "chain of UniProt Q13546 (whole entry, looked up)": "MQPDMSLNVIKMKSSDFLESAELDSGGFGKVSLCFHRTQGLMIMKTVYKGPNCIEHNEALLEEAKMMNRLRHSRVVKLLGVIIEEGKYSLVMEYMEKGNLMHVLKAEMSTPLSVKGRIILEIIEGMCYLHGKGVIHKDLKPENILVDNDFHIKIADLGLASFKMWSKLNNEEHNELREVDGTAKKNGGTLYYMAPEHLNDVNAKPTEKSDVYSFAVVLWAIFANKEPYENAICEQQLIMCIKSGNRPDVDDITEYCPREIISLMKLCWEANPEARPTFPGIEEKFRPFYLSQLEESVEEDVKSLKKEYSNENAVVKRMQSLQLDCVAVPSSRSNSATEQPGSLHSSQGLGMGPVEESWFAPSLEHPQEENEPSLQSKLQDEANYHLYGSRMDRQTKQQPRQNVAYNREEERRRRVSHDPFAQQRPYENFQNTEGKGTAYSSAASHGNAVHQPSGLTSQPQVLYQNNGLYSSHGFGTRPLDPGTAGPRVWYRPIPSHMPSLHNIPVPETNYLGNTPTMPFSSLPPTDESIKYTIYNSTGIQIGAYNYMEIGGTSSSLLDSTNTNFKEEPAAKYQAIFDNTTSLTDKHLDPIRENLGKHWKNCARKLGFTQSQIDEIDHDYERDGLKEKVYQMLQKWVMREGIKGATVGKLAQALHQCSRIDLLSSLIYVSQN", "chain of UniProt P0C264 (whole entry, looked up)": "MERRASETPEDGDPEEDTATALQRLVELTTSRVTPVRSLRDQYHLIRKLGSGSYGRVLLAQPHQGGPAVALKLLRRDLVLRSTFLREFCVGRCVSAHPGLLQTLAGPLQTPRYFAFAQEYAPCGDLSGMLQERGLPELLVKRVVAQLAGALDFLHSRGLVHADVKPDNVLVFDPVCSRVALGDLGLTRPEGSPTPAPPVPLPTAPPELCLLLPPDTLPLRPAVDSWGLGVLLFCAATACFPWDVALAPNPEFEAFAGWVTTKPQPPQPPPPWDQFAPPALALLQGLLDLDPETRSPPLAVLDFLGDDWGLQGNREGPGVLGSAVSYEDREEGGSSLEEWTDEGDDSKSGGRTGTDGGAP", "chain of UniProt Q13976 (whole entry, looked up)": "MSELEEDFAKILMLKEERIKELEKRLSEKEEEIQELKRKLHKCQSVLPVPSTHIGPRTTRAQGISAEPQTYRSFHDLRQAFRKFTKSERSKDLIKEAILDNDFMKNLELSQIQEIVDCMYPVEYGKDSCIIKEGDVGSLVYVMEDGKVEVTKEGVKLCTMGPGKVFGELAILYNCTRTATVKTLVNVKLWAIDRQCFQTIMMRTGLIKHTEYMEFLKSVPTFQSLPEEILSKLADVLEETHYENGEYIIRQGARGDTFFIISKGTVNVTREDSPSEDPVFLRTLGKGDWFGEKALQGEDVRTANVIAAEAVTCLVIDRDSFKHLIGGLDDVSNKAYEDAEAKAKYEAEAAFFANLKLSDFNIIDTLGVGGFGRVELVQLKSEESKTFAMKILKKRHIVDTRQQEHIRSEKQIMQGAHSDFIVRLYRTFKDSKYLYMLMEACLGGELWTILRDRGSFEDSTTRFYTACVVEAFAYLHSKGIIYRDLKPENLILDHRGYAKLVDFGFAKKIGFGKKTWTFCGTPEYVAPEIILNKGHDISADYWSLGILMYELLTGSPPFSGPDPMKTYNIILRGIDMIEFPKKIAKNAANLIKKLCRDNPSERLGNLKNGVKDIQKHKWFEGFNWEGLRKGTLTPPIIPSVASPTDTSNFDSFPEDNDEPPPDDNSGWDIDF"}
{"data": "Series 1", "target": "TAR DNA-binding protein 43, full length, His tag (TARDBP, Homo sapiens, UniProt Q13148, residues 1-414)", "method": "RNA Bind-n-Seq", "molecule type": "RNA", "medium": "in vitro", "tested at": "20 nM", "notes": "6-mer, flanks averaged, single round", "together with": "150 mM LiCl", "baseline": "input library", "reading": "higher = stronger binding"}
{"Sequence": "CUGGUC", "6-mer enrichment (R)": 0.887}
{"Sequence": "CCUUCA", "6-mer enrichment (R)": 0.93}
{"Sequence": "AUUGUG", "6-mer enrichment (R)": 1.25}
{"Sequence": "GCUUAA", "6-mer enrichment (R)": 0.895}
{"Sequence": "UCAACA", "6-mer enrichment (R)": 0.804}
{"Sequence": "AGUAUC", "6-mer enrichment (R)": 0.849}
{"Sequence": "UAACGA", "6-mer enrichment (R)": 0.802}
{"Sequence": "GAGGCA", "6-mer enrichment (R)": 0.992}
{"data": "Series 2", "SMILES": "O=C1NC(c2ccccn2)Sc2ccccc21 (centres unmarked)", "effect on": "cell-free assay", "method": "competition with immobilised ligand", "tested at": "1 µM"}
{"target": "Ephrin type-A receptor 5 (EPHA5, Homo sapiens, UniProt P54756)", "remaining binding": "85%"}
{"target": "Tyrosine-protein kinase ABL1, phosphorylated (ABL1, Homo sapiens, UniProt P00519, M351T)", "remaining binding": "100%"}
{"target": "BDNF/NT-3 growth factors receptor (NTRK2, Homo sapiens, UniProt Q16620)", "remaining binding": "87%"}
{"target": "Dual specificity protein kinase CLK1 (CLK1, Homo sapiens, UniProt P49759)", "remaining binding": "98%"}
{"target": "Receptor tyrosine-protein kinase erbB-3 (ERBB3, Homo sapiens, UniProt P21860)", "remaining binding": "88%"}
{"target": "Tyrosine-protein kinase Srms (SRMS, Homo sapiens, UniProt Q9H3Y6)", "remaining binding": "84%"}
{"target": "Epidermal growth factor receptor (EGFR, Homo sapiens, UniProt P00533, G719S)", "remaining binding": "82%"}
{"target": "Tyrosine-protein kinase ABL1, phosphorylated (ABL1, Homo sapiens, UniProt P00519, Q252H)", "remaining binding": "73%"}
{"target": "Fibroblast growth factor receptor 4 (FGFR4, Homo sapiens, UniProt P22455)", "remaining binding": "89%"}
{"target": "Myosin light chain kinase, smooth muscle (MYLK, Homo sapiens, UniProt Q15746)", "remaining binding": "77%"}
{"target": "Phosphatidylinositol 4,5-bisphosphate 3-kinase catalytic subunit alpha isoform (PIK3CA, Homo sapiens, UniProt P42336, H1047Y)", "remaining binding": "67%"}
{"target": "Cyclin-dependent kinase-like 5 (CDKL5, Homo sapiens, UniProt O76039)", "remaining binding": "100%"}
{"target": "Uncharacterized serine/threonine-protein kinase SBK3 (SBK3, Homo sapiens, UniProt P0C264)", "remaining binding": "86%"}
{"target": "RAF proto-oncogene serine/threonine-protein kinase (RAF1, Homo sapiens, UniProt P04049)", "remaining binding": "100%"}
{"target": "Cytoplasmic tyrosine-protein kinase BMX (BMX, Homo sapiens, UniProt P51813)", "remaining binding": "100%"}
{"target": "cGMP-dependent protein kinase 1 (PRKG1, Homo sapiens, UniProt Q13976)", "remaining binding": "100%"}
{"target": "Receptor-interacting serine/threonine-protein kinase 1 (RIPK1, Homo sapiens, UniProt Q13546)", "remaining binding": "81%"}
{"data": "Series 3", "target": "Histone acetyltransferase KAT6A, both winged helices, GST fusion (KAT6A, Homo sapiens, UniProt Q92794, residues 1-181)", "method": "protein binding microarray", "molecule type": "double-stranded DNA, one strand shown", "medium": "in vitro", "tested at": "not given", "notes": "8-mer, flanks averaged, mean of 2 arrays, mostly near background", "baseline": "not given", "reading": "higher = stronger binding", "Construct (chain)": "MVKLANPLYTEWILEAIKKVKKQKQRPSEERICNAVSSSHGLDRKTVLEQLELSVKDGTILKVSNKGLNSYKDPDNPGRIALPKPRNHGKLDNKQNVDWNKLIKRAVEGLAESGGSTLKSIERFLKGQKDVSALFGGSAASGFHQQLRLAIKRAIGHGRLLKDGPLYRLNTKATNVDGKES"}
{"Sequence": "CCTGTCGA", "E-score": -0.0902}
{"Sequence": "ACCGGTTG", "E-score": 0.0843}
{"Sequence": "CGAGTCAA", "E-score": -0.0759}
{"Sequence": "CCTCTGCC", "E-score": -0.094}
{"Sequence": "GCCGTTGA", "E-score": 0.206}
{"Sequence": "AACGACGG", "E-score": 0.235}
{"Sequence": "CCTCTTAA", "E-score": -0.09}
{"Sequence": "CTGACTTC", "E-score": -0.0256}
{"data": "Other studies, line by line"}
{"SMILES": "O=c1c(O)c(-c2ccccc2OC(F)F)oc2ccccc12", "system": "mouse, microsomes or S9", "conditions": "2 µM, 0.5 h", "endpoint": "remaining compound", "value": "0%"}
{"SMILES": "CC(C)OC(=O)CCC/C=C\\C[C@@H]1[C@@H](CC[C@@H](O)CCc2ccccc2)[C@H](O)C[C@@H]1O", "tested on": "Sarcocystis neurona", "test": "parasite growth", "conditions": "10 µM", "endpoint": "inhibition", "value": "-19.8%"}
{"note": "Excerpt of the above (series 3):"}
{"Sequence": "CCTCTGCC", "E-score": -0.094}
{"Sequence": "GCCGTTGA", "E-score": 0.206}
